Measured values collected from several papers.
Every numbered part comes from another study and shows a few of its results, in no order. Substitutions count along the parent as printed.

Study 1
Target: Histone acetyltransferase KAT6A, winged helix 2, GST fusion (KAT6A, Homo sapiens, UniProt Q92794, residues 85-181)
Method: protein binding microarray
Molecule type: double-stranded DNA, one strand shown
Sample: in vitro
Concentration: not given
Notes: 8-mer, flanks averaged, mean of 2 arrays, mostly near background
Reference: not given
Direction: higher = stronger binding
Target sequence (chain): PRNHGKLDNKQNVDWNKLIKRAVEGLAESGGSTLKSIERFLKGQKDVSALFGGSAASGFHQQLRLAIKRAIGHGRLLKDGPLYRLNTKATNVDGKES
Strand | E-score
GCTGCCTA | -0.0336
CGGTGAGC | 0.0667
CCTCACAA | -0.0136
CATTATTA | -0.0155
ACGTCAGA | -0.132
CACCAATG | -0.0462
CTTTCGGC | -0.0212
CTGTGGCA | 0.0466
ACCCTGGC | 0.00073
ACAACAGC | -0.0789
AAATGTGG | 0.0263
GTAGCGAC | -0.0911
CATGTGCG | 0.0272
TCATGTAA | -0.17
AGCAAAAT | 0.217
CAGTATAC | -0.14
GAGTGCGA | -0.00785
TCCCTCGA | -0.0121
AACCCTTA | -0.00722
ACGGTCCA | -0.0775
GTGCGTGA | 0.163
AGTTAATC | 0.157
CATACGCG | 0.0682
ATTAGTAA | 0.0547
CGTATTTC | -0.0522

Study 2
Target: RING finger protein unkempt homolog, zinc fingers 1-6, SBP tag (UNK, Homo sapiens, UniProt Q9C0B0, residues 30-357)
UniProt Q9C0B0, sequence (30-357, looked up): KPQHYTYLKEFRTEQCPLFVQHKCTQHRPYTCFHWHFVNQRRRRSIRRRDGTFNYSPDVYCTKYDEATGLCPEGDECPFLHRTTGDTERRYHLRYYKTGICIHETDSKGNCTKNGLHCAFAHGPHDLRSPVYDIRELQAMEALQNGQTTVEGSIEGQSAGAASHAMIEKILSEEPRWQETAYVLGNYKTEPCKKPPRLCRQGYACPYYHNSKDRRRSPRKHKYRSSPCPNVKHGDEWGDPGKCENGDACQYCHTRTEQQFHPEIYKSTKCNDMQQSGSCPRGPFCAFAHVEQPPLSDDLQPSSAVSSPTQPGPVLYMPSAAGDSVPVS
Method: RNA Bind-n-Seq
Molecule type: RNA
Sample: in vitro
Concentration: 100 nM
Notes: RNA with constant flanks, vertebrate orthologous sites, ends assumed
Reference: input RNA pool
Direction: higher = stronger binding
Constant ends, left off below: GGGAGUUCUACAGUCCGACGAUC … CAACAGAGGAUUGAGCAUCA
Strand | bound/input enrichment [ratio]
AAUCAACUCAGGUUUUAUUUAUUUUGAAAUUAUCAAUUGUAUGUCUAAUUUAUUGACAAAUAUGAUGGGAUUUUUUUUAUUGUUGAAACCUUGACAGGCAAUUCAUAUUCUCAGCUUCUA | 0.256
AACCUAAAAUUAUACCAAAAGAGCCAAGCAGUAGCAUUGUUUUUUUUGUAAAUGUAAAAAUAGAUCCAGACUUUGUUUCCUUAUUCAAUUUUAAAAAUAAAAAAUACCUCAGUGCUGUUU | 0.398
CCUAAAGCUUUGUGUUUGGCUGCACCUGCAUAAGCUGCUACAAAUAGAAUAAAGAAUUCAUAGCCUGUAUCUAUCAUUUAGAUGCAUGGAAAAAUGGGCUUUGCACACAAUGGGUUUGAA | 1.84
UGUAUGUGUGUAUGUGUGGGUUUGGGGGGAGGGGGCAAGACAGGUGGAAUCUCUAGGGUGUAUGGUAGUAGGAAGCACAGUGCUAAGUGGGCCUUUAUGUUAAACACAUCUGGGAGUGUC | 0.721
UUUAAAGUCAUUUUUUCACAUUUCCUGUAAAUAAUGGAUAAUCAUUUUUAUUUUAUUUUUAAGUGCUGUUUUAACAAUGUGGAUAGACCAUAAAUGUACUUGCUGAAUUCAUUCAUUUUU | 0.429
AUUGUACUCCAAAGUCAUCCUACCUCUAAAACAGCACGGUGAUGCCAAACUAGUCUACAUUAGGGAAUCACCUGCUGUCACAUUGUCAUUGGUGUGUGUCUUGAUGCCUGAACUGGUUAC | 0.271
UAAGUAAAAUACUGGAUGCAGCAUAUAGAUGAUCCAAGGCAGUGACUUUAGCUUUAGAUACUAGUUUUAAGGUUAUUUACAUUUAUUUAAACUUUUACAUUGGACUAUUUGCUAUUGCUG | 0.502
CAAAAAAGCGUUUCUACUGGGUUUUGCCUGUAAGAAAAAACAAAAAUGUACCCGAGCACAUAGAGCUUUGAAUAGCACUAACCAAUGCCUUUUUAGAUGUAUUUUUGAUGUACAUAUCUA | 0.37
GAGCUAAAGGAGUUAGUAUCUUUAUUUUUGUAUCAAAGAUAAAGGUUAUUUUGCAAUUAUUAGGAUUUCUACACAACUCUGAUCUCUGUUGCUUUUGUAAACAAAUUCUUUGAUUUUAGG | 0.775
UACAUCUGGUGAUAUUUGGCCUGGCCUUUCAGCUUAUGAUAAUAGUCCCAGAUCACCCCAUAGUCCUUCACCGAUUGCUACACCACCGAGUCAGAGUUCAUCUUGCUCUGAUGCCCCUAU | 0.692
GUCAUCUGAUUGGAUGAAGACCAUCCCGAGUUACAACCAAACAAAUAGCUCCAUGGACUUUAGAAAUUAUAUGAUGAGAGAUGAGAAUCUGGAACCACUGCCCAAAAACUGGGAAAUGGC | 0.704

Study 3
Target: RNA binding protein fox-1 homolog 2, RRM domain, GST-SBP tag (RBFOX2, Homo sapiens, UniProt O43251-10, residues 100-194)
Method: RNA Bind-n-Seq
Molecule type: RNA
Sample: in vitro
Concentration: 365 nM
Notes: natural RNA segment, single round, ends assumed
Reference: no-protein control
Direction: higher = stronger binding
Constant ends, left off below: GGGAGUUCUACAGUCCGACGAUC … UGGAAUUCUCGGGUGCCAA
Residues (chain): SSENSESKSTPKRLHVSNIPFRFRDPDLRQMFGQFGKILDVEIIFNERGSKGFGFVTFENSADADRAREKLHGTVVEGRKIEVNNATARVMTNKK
Strand | RBNS enrichment (R)
AACAUCACGCAUGUCAUUCACUGCCUUGCCACUCCAUCUCCCUCCGUGCUCCAGCCACCCCUGAGCUGAGGCUCCCAUUGUCUCCAUCAGAGCCUGCAUGUGUAUGCCGU | 14.6
CUGCAAAGGAUUAUGGGAAACUCCAGGACUCUUCUACCCAGCUCCUGCCUGCAAAGGUUCCCUGCAUGCCUCUUCCCCUGAGCCCAGGGGUACCUGGUCCCCAUUUCCUA | 9.74
CGAAUUUAAAACAAAAAGGAGGGACUUUAAAAUACCUUCUUGACAAAAAUCAACAAUGCACAACUUACAAAGUGUUCAUUCUAGGGACAAAAUUAAAUAAACAGAAUGUC | 0.362
AAGUCAGAAGUUUAAAAUGUGUUAUAGUUUGCUAAAAAAAAAUCAAAUUAACUGCAUAUAAAAUGGUUCACUUUUAUAUAGUCACAUGUAAUGGGCCUGAAAAAGUUUCU | 0.753
GCUGGAGCAAGAGUCCACCUUUAGCUGUGCCUGCCUUUACUUCUGUGCCUCACAAGUGCCUUUUGAAAAGCCUUAAAUUCUGCAUUCCCAUAAAAUAAAGUUGAUGCCAC | 0.532
UUUUGCUCCAGCCACUUUUCUUGUACAACCACAUGGAUGGAUUAGAUGUCCUCAGGUCUUUUCCAUCUUCAGUUUCUAUGACUGUGGAAUAAAUGUUCAGAUAGAAACUU | 0.485
AGACCCCCACACCUCAGUUCCCUUGGCCUCAGAAUUCACAAAAUUUCCACAAAAUCUGUCCAAAGGAGGCUGGCAGGUAUGGAAGGGUUUGUGGCUGGGGGCAGGAGGGC | 0.957
AAAACUUUGAAAGUUUCUUUCUUUAAAAUGGGAAAUACUCAAUAUCUAAAUCCAGGUCAGGCAUGGGAUAUCAGUAUUUAACAUUGGAUGUUUUAUGUUUUAUAUUUAUA | 3.85
ACUAAUGGGUACUCUGAACUCAUUAACAUUGACAUCUGCAACAGGAGGCAACAGGGAAAAAAUCUCAUCUUCUUUUCCAGUAGAAAAUAGUUUGUGAAAUGAUGAGGGCA | 5.71
CCCCAGAGGAUCUGGCUCUAGGUUGGGAUCAAUCCUGAAUUUCGUUAUGUGUUAAUUUACUUUUAUUAAAAAAGUAUAGUAUAUAUAAUACAAAACAAUAACCCUUCUGG | 0.621
CCUGGCCCUGGCCUUGCUUGCCCAUGGUGUGUGUGUCCAGAGGUGUGUGUGAGGCUGCCAGAACAAGUGCUGGGUCUGUCACAGAGAAGUUUAAAAAAGAAAACUAAGAU | 1.46
CAUUCGCACUGCCUCUGUUGCUUCUGGCUGACCAGACCUCAUGGCCCUGCACUAGACACCCGACCCUUACUAGCCACCAGCCUUAAUUAAACACGGCCUUGGCCUAAGGC | 0.349

Study 4
Target: Centromere-binding protein 1, full length, N-terminal tag (CBF1, Saccharomyces cerevisiae, UniProt P17106, residues 1-351)
UniProt P17106, sequence (whole entry, looked up): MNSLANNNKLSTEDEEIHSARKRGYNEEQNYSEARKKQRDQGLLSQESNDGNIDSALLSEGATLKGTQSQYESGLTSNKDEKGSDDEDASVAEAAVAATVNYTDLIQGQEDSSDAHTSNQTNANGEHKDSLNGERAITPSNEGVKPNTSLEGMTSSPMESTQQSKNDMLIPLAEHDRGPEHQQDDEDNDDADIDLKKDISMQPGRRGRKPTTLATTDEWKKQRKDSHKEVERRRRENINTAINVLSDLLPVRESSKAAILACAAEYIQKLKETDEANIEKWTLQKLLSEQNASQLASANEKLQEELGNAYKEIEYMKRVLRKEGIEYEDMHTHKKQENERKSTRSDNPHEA
Method: protein-binding microarray
Molecule type: double-stranded DNA, one strand shown
Sample: in vitro
Concentration: 0.8 µM
Notes: whole 60-bp probe, no competitor
Direction: higher = stronger binding
Constant ends, left off below: … GTCTTGATTCGCTTGACGCTGCTG
Strand | fluorescence intensity [a.u.]
TGTACGAAGCTATATCATGACGTTATAGTAGTTAGG | 536
GAACTAGGAAAAGATGGTGACGCCGTTTATCTGTAG | 515
CTACTGCAACACAGACACGGGAAGGCCCAATCATTC | 528
CTATCTCGAAAAGAGCACGTCGAAACAGCGGTATTC | 532
TGTACGAAGCTATTAACACGTGATATAGTAGTTAGG | 10600
CTACTCCATTGAATTGAGGTGACGATGGATAAATTC | 518
CTATATTTCAGCCTTATCGTGGTGGTACATGTATTC | 490
CTAGTTACCTCCAGGTGATTGCTGTCTTTATGCTTC | 520
GAAGCCTTAACTTCTGACGTGAAAAAAAAAAAATAG | 603
CTAAAAAACCGCAATCACGTAACCGTGGCTTCCTTC | 542
GAATGTATATTTGATCACGTATTGAACTGTTACTAG | 942
CCTAACTACTATACGCACCTGCTATAGCTTCGTACA | 534
CTATACAATGTTGATCTCCTGAGTATTGTTAATTTC | 525
GAAGAGCTTCGCTGACACGTGGGAGGTGGGATATAG | 2420
GAAAATAAAGCACGTGACTCAATAATACGACGGTAG | 24800
GAAGAAAAAACTTCTCAGCTGACTCCACCATATTAG | 708
CTAGGAGGATCTAATGGTGACATAGTCCATTTCTTC | 492
CTATATATTTCTTTTCATCACGTGCTATAAAAATTC | 20100
GAATGAGAACAATCAGGTGAGAGATGCCGTTTCTAG | 629
CTATTATTTTCGTCAGGCGTGATATCAGCGAGTTTC | 750
CTACCACCAGAAAGTCACCTGCTCTCTTAATCATTC | 2670
CTATTTACATCTTGACATCACATACATAATATGTTC | 543
GAAAATAGTTAGGTGCTCGTGACAAACCTTTTTTAG | 1330
GAACTGTCCTTCCATAATCACGTGCTTACCTATTAG | 18800
GAACAATATCCTAGTCACGGAGCACGAGAGGTATAG | 1230

Study 5
Target: CCNB1, cyclin fold, Cln2 fusion (human)
Method: yeast growth competition, sequencing
Sample: yeast
Notes: weak parent motif
Reference: not given
Direction: higher = stronger binding
Parent: DBF4B docking peptide (human); LGYLYLLLTQSLW
Change | normalised enrichment score
L6A | -0.15
L1A | 0.502
W13A | 0.0632
L4A | 0.154
Q10A | 1.04
L12A | 0.293
L7A | 0.18

Some of these lines once more (study 1):
Strand | E-score
GCTGCCTA | -0.0336
CGGTGAGC | 0.0667
CCTCACAA | -0.0136
CATTATTA | -0.0155
ACGTCAGA | -0.132
